Experimental data collected from several papers.
Every numbered part comes from another study and shows a few of its results, in no order. Substitutions count along the parent as printed.

Sample 1 — technique: protein-binding microarray; form: double-stranded DNA, one strand shown; medium: in vitro; tested at: 2540 nM top; notes: 60-bp whole probe; added: salmon DNA 0.4 mg/ml; relative to: random background probes; reading: higher = stronger binding; constant ends, left off below: GCCTAGCAC … GTCTTGATTCGCTTGACGCTGCTG
Target: Interferon regulatory factor 3, full length, phosphomimetic (IRF3, Homo sapiens, UniProt Q14653, residues 1-427, S386D/S396D/S398D/S402D/T404D/S405D)
Target sequence (chain): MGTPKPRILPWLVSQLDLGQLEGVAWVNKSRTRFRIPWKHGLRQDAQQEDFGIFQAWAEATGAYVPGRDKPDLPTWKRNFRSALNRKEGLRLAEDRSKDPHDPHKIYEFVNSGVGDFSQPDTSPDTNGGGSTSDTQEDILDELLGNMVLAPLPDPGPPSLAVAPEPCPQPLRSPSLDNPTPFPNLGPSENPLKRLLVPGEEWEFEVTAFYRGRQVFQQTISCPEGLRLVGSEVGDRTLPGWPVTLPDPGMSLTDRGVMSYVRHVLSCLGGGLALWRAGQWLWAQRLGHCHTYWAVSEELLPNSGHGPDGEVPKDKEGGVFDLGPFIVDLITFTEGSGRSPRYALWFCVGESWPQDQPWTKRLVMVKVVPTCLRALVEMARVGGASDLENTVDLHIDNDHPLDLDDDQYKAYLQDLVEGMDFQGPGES
Sequence | fitted relative affinity [z-score]
GACGGACTGCTTCACCTGACGTGCTAG | -0.425
TTAGGATTGCTTCTCCTTTAGTGCTAG | 0.976
TTAGATCTCAGTCTCGACTAGTGCTAG | 0.528
CTTTTTTTTTTTTTCTGATCGTGCTAG | 3.19
TTAGACCTGAGACTGGATTAGTGCTAG | -0.767
GACGGTATCGACACTGGCGACGTGCTA | 0.67
AAGACTTTCTTTCAAATGAAGTGCTAG | 0.894
CACGATCTCAGTATCGAGACGTGCTAG | 0.854
CTCCTAATAAATATGAGACTGTGCTAG | 0.995
GGCCATTTCCCTTGCCGCGCGTGCTAG | 1.1
GACGAACTGAGTTTCGGGACGTGCTAG | 2.27
GACGATATCAGAGTGGAGACGTGCTAG | 0.208
TTAGATATCAGTTTAGATTAGTGCTAG | 1.84
GACGGTATCGGCCTCGGGACGTGCTAG | 0.846
GACGGTTTCGTCACTGGGGACGTGCTA | 2.52
GACGATATCACTCTCGAGACGTGCTAG | 1.48
GACGGTTTTGGGTATCGGGACGTGCTA | 1.49
GACGATTTCAGCATCGAGACGTGCTAG | 0.586
GACGGTTTCCGGTTTCGGGACGTGCTA | 5.76
GCCGGACTGGGTCTCGGGACGTGCTAG | -0.241
GACGGACTGGACTTTCGGTACGTGCTA | 1.17
GACGATCTCCTTTTCCTGACGTGCTAG | 3.16

Sample 2 — technique: RNA Bind-n-Seq; form: RNA; medium: in vitro; tested at: 365 nM; relative to: no-protein control; reading: higher = stronger binding
Target: RNA binding protein fox-1 homolog 2, RRM domain, GST-SBP tag (RBFOX2, Homo sapiens, UniProt O43251-10, residues 100-194)
Notes: natural RNA segment, single round, ends assumed
Constant ends, left off below: GGGAGUUCUACAGUCCGACGAUC … UGGAAUUCUCGGGUGCCAA
Residues (chain): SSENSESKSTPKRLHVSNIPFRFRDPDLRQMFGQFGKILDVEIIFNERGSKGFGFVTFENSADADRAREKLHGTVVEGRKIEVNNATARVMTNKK
Sequence | RBNS enrichment (R)
UAAAAACUUGGGACUAUACAUGGUGAACUUACAGGAGGUUAGGGGGGAAAUAUUACUUAUCCAUCAGGUUUCUCUUUGGUUUUUGUAAACGGAGAGGACAGUUCUUAGUC | 0.979
UCCAUUGUCCCGAUCCAGCUAUCACCCAGGGGUCCAUACAUUUUCUUCAUGUUUCUUCUUUGUAUAUUUGGUGACUGUAUUGUCAUAGAUGUACAUAUCGUGUCGGUAGG | 0.573
AUGGCUGUGGCCUGAAGUUGCACUUGCAAAGGUCCUGCUUCUACAGGACGCUGAGGUACUUACUACCCUGGUCUCGGGAACUGCCUGCCUAGGGCAACAGAUGUCCUGAC | 0.233
UCCUCUUGUGUUGGCAAGAUGGCUGCCAACUCUUGGCAAUUCAUACAUCCUUGUUUCUGUCUGGUAGAGAGUUUGCUUCUCAAAUGGAGCAAACAAAUUUGAUUAUUUUU | 0.784
UCCCAAAGUGCUGGGAUUACAGGCGCAAGCCACCCAGCCCAGCUUCUUUCCAUUCCUUGAUAGGCGAGUAUUCCAAAGCUGGUAUCGUAGCUGCCCUAAUGUUGCAUAUU | 0.347
UGAAAACAGGGGCACACAGAAAUUUGAUUUGUGGCCAAAUUGGAUGAAAAAGAUGAGGCUCUAAGGAAAUGGUGGCAUGAAGACCCUCUCCCUUCUUUGUAGAAUUAAGA | 5.9
GUUCUUUGAUUUUAAAAAGAAAAACCUUUUCCAUCAUAUUAAAGAGAAAAUUAGCUAUGGGAAGAUAUUAAAAGAUUUCUUAGAUGGAUGUGGUUAAAAUUUUUGUAAUA | 1.5
UCCUGCCCUCUGUGGUCAUCUGCCACCUGCUGGAUCAAGUGCUUUCUCUUUUACACUCCCCUGUCCCCACCCCAGUGCACUCUUCUGGCCCAGGCAGCAAGCAAGCUGUG | 0.642
AUCACAUAACCUCUAGAGACCAUGCAUCUAGUUAUUGUCAGGAAUAAUUUAAAAGGUUUAGUCGCCAAAAGCAGUUAAGUGGUGCAGUAAGAUAGUUAAGUUAUUCAAAG | 0.753
AAACCCUUACAGUGAAGAUGUUUACUCAUUGCCCCCACCUCUGGUCCACACUAGAAAGAAGCUCGCCCCACCUCCACCUGUGAGAUCCGUGAAUUCUCGGAAUGGCAGGG | 0.229
ACAUACAUACCUGUACAUAUUUAGAUAUAAGCUGCUAUAUGUUGAAUGGACCCUUUUGCUUUUCUGAUUUUUAGUUCUGACAUGUAUAUAUUGCUUCAGUAGAGCCACAA | 1.06
UGUAAUGGUUCAGCUAAUCCCAUGGCGAGAUGGGGGCUCACUCCGGAGGAGGAGCCAGGCAGCAGGGCCUUCCUGACCAACAGCCAGCUCUGUCCUUCCCCCCAGGAAAC | 0.372

Sample 3 — target: CCNB3, cyclin fold, Cln2 fusion (human); technique: yeast growth competition, sequencing; medium: yeast; notes: strong parent motif; relative to: not given; reading: higher = stronger binding
Starting sequence: E2F1 docking peptide (human); PPVKRRLDFETDH; partner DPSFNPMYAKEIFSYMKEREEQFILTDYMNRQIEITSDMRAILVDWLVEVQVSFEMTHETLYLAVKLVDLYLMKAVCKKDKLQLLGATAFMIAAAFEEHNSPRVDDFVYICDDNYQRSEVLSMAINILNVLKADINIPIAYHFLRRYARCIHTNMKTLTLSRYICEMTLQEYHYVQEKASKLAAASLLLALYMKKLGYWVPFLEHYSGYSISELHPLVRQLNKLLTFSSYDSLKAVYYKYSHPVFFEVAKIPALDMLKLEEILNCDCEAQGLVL
Substitution | normalised enrichment score
E10G | 3.18
D12K | 3.25
L7M | -0.0318
P2A | 1.8
V3T | 1.01
R6Q | 0.479
T11Q | 2.44
R5Y | 0.194
T11C | 2.43
V3G | 0.0883
T11G | 2.52
R5E | -0.344
D8T | 2.94
E10I | 1.23
D8F | 3.17
P2T | 1.72
E10Q | 2.02
F9K | -0.0185
K4G | 0.348
F9S | 0.193
D8S | 1.79
L7V | 0.19
V3Q | 0.18
D12G | 3.13
F9I | 0.281

Sample 4 — technique: DHFR PCA, dose-response; medium: yeast; notes: Hill fit, mean, not affinity; added: (+)-ABA, dose series; reading: lower = more sensitive
Target: ABI1, truncated, D143A, DHFR fusion (Arabidopsis thaliana, UniProt P49597)
Starting sequence: PYL1, truncated, DHFR fusion (Arabidopsis thaliana, UniProt Q8VZS8); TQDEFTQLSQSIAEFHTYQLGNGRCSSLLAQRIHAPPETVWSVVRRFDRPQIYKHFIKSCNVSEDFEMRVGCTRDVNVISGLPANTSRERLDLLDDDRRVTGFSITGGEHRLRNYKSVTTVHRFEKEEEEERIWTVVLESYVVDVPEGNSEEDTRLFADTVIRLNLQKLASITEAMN
Substitution | ABA EC50 [µM]
T1P | 2.22
Q31V | 16.1
T39L | 3.37
T73G | 40
D92R | 165
L164M | 0.655
T17W | 44.7
E129L | 3.76
T1G | 1.47
I133S | 1.47
V70Y | 87.7
H34E | 5.27
E128P | 2.31
A13K | 2.36
Q2G | 3.28
T86M | 10.3
M176D | 3.06
A158M | 16.9
S11H | 1.39
D144F | 345
T86Y | 0.946
W134G | 2.06
S42E | 2.97
R123P | 2.13
E130R | 3.32

Mixed results
Molecule | target | assay | system | conditions | scale | quantity | result
PhoQ, residues 284 288 289 292 302 303 SCKMEA | PhoP, residues 12 14 15 18 19 LWHSL (Escherichia coli, UniProt P23836) | Sort-seq, measured: YFP reporter | E. coli | PhoQ-PhoP variant library, added: 10 µM Mg2+ | relative to: high Mg2+ state, higher = stronger signaling | fold induction | 27.7

For quick reference, copied from above (sample 4):
Substitution | ABA EC50 [µM]
T86M | 10.3
M176D | 3.06
A158M | 16.9
S11H | 1.39
D144F | 345
T86Y | 0.946
W134G | 2.06
S42E | 2.97
R123P | 2.13
E130R | 3.32
